# Experimental data pooled from the literature.
# Every numbered part comes from another study and shows a few of its results, in no order. Values joined by “and” are separate records of one study, mostly repeats; a detail may differ.
# Chain of UniProt P00519 (whole entry, unmodified, looked up): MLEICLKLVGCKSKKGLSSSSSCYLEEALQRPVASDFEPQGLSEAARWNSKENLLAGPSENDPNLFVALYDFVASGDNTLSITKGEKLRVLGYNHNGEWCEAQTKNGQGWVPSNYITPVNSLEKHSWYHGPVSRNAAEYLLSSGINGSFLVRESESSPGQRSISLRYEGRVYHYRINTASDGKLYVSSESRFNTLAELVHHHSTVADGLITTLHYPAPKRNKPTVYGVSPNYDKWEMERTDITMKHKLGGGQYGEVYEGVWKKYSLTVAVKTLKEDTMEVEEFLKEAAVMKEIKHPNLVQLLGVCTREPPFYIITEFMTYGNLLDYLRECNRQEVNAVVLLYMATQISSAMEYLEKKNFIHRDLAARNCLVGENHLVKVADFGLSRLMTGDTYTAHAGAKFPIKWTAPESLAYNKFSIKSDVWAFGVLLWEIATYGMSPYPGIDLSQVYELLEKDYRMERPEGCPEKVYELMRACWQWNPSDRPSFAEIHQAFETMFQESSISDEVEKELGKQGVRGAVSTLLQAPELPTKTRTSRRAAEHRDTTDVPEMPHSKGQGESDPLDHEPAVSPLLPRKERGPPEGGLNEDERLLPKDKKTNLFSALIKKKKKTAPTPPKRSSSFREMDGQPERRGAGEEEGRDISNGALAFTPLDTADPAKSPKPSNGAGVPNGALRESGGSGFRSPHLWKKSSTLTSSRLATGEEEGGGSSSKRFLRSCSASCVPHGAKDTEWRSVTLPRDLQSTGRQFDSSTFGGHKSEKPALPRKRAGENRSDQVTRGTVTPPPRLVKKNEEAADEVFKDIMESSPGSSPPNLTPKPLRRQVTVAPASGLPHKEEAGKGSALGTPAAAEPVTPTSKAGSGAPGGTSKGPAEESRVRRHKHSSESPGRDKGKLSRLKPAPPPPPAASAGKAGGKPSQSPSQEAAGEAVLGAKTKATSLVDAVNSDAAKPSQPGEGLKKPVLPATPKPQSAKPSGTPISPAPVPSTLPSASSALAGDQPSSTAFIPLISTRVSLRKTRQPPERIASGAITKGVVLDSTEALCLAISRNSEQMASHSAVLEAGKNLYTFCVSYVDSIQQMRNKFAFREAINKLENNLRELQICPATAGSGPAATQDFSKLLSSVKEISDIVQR

# Set 1
# Structure (SMILES): CC(C)n1cnc(-c2ccc(F)cc2)c1-c1ncc(C(=O)Nc2ccc(N3CCN(C)CC3)cc2)[nH]1
# Method: phase 2a trial
system,conditions,patients with TEAE [%]
patients with idiopathic pulmonary fibrosis,"60 mg once daily, endocrine disorders SOC, grade 2",0
idiopathic pulmonary fibrosis patients,"oral, dose not given, GLDH increased, grade 5, all arms",0
idiopathic pulmonary fibrosis patients,"oral, 60 mg once daily, urine red cells, grade 2",0

# Set 2
# Target: Histone acetyltransferase KAT6A, both winged helices, GST fusion (KAT6A, Homo sapiens, UniProt Q92794, residues 1-181)
# Method: protein binding microarray
# Molecule type: double-stranded DNA, one strand shown
# Sample: in vitro
# Concentration: not given
# Notes: 8-mer, flanks averaged, mean of 2 arrays, mostly near background
# Baseline: not given
# Direction: higher = stronger binding
# Residues (chain): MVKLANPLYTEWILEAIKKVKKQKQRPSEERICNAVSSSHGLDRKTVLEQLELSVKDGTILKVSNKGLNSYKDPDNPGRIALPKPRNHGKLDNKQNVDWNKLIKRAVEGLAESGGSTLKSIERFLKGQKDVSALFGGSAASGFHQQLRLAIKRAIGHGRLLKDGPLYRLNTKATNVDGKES
Oligonucleotide,E-score
CTTCACCC,0.124
CTGTCCAA,-0.027
ATCCTAAT,-0.0524
CCAAGCGA,-0.0377
CACACCGA,0.0346
AGTATTGA,-0.0221
GTGAAAAA,0.00101
ACAAATCC,-0.115

# Set 3
# Host: human
# Sample: microsomes or S9
# Concentration: 2 µM
# Time: 0.5 h
Compound,remaining compound
Nc1cc(C2=NOC3CCCCC23)nc(C(=O)O)c1Cl (stereo not shown),> 99%
CC1(C)C[C@H](O)[C@@H](n2/c(=N/C#N)[nH]c3ccccc32)c2cccc([N+](=O)[O-])c2O1,97%
COC(=O)c1ccc(COc2ccc(-c3nnn[nH]3)cc2)cc1,0.345%

# Further values, each from its own experiment
# Concentration: 1 µM
SMILES,tested on,test,system,conditions,scale,quantity,result
"COc1ccc2c(c1)O[C@H](c1ccc(OC)c(OC)c1)C[C@@H]2NC(=O)C1(c2ccc3c(c2)OC(F)(F)O3)CC1 (single isomer, unassigned)","Tyrosine-protein kinase ABL1 (ABL1, Homo sapiens, UniProt P00519, F317I)",KINOMEscan,,"F317I mutant, phosphorylated",baseline: control,remaining binding,78%
Cc1ccc2nc(CNCCCOc3ccccc3)cc(O)c2c1,normal organoid sample F,CellTiter-Glo,"human, normal-adjacent epithelium",,baseline: DMSO,viability,108% and 134%

# Excerpt of the above (set 1):
system,conditions,patients with TEAE [%]
patients with idiopathic pulmonary fibrosis,"60 mg once daily, endocrine disorders SOC, grade 2",0
idiopathic pulmonary fibrosis patients,"oral, dose not given, GLDH increased, grade 5, all arms",0
